# Results of several laboratories.
# “And” joins repeats or separate records; there may be more than shown.
# Cell line: NCI-H460
Structure (SMILES),assay,conditions,IC50
CC(=O)OC[C@H]1O[C@@H](Oc2ccc(C#[C][Pt+])cc2)[C@H](OC(C)=O)[C@@H](OC(C)=O)[C@@H]1OC(C)=O.O=S(=O)([O-])C(F)(F)F.c1ccc(-c2cccc(-c3ccccn3)n2)nc1,cell growth or viability,48 h,97400 nM
O=C(O)c1ccc(-c2ccc(O)cc2)c2c1C=C(c1ccc(O)cc1)OC2(c1ccc(O)cc1)c1ccc(O)cc1,"cell growth or viability, MTT",48 h,7020 nM
Cn1ncc(-c2ccc3c(=O)[nH]nc(CN)c3c2)c1-c1c(F)c(Cl)cc(OC2CC2)c1C#N,"cell viability, inhibitor, CellTiter-Glo","120 h, baseline-subtracted",1310 nM
CNS(=O)(=O)Nc1nccc(Cc2c(C)c3ccc(Oc4ncccc4F)cc3oc2=O)c1F,cell viability,7 days,> 1000 nM
O=Cc1ccc2c(c1C#Cc1ccc(O)cc1)C(c1ccc(O)cc1)(c1ccc(O)cc1)c1cc(O)ccc1-2,"cell growth or viability, MTT",48 h,> 50000 nM
O=C(NCc1cc(F)cc(F)c1)[C@@]1(O)CCN(c2ccc3[nH]ccc3c2)C1=O,cell growth or viability,,5800 nM
CCC(=[N][Pt-2]1([Cl])[NH2+]CCC[NH2+]1)N(C)CCNc1c2ccccc2nc2ccccc12.O=[N+]([O-])O.O=[N+]([O-])O,"cell growth or viability, MTS",72 h,2.16 nM
O=Cc1ccc(-c2ccc(O)cc2)c(C(=C2C=CC(=O)C=C2)c2ccc(O)cc2)c1C#Cc1ccc(O)cc1,"cell growth or viability, MTT",48 h,11900 nM
CCC(=[NH+][Pt-2]1([Cl])([O]C(=O)CC(C)C)([O]C(=O)CC(C)C)[NH]CCC[NH]1)N(C)CCNc1c2ccccc2[nH+]c2ccccc12.O=[N+]([O-])O.O=[N+]([O-])O,"cell proliferation, MTS",72 h,< 10 nM and 5.3 nM
COc1cc(S(=O)(=O)Oc2ccc3[nH]c(C)cc3c2)cc(OC)c1OC,cell growth or viability,72 h,7.96 nM
CCCCCCCC/C=C/CCCCCCCC(=O)[O][Pt-2]1([OH])([Cl])([NH+]=C(CC)N(C)CCNc2c3ccccc3[nH+]c3ccccc23)[NH]CCC[NH]1.O=[N+]([O-])O.O=[N+]([O-])O,"cell growth or viability, MTS",72 h,33.7 nM
COC(OC)c1ccc(-c2ccc(O)cc2)c(C(=C2C=CC(=O)C=C2)c2ccc(O)cc2)c1C#Cc1ccc(O)cc1,"cell growth or viability, MTT",48 h,> 50000 nM

# Repeated from above:
Structure (SMILES),assay,conditions,IC50
O=Cc1ccc(-c2ccc(O)cc2)c(C(=C2C=CC(=O)C=C2)c2ccc(O)cc2)c1C#Cc1ccc(O)cc1,"cell growth or viability, MTT",48 h,11900 nM
CCC(=[NH+][Pt-2]1([Cl])([O]C(=O)CC(C)C)([O]C(=O)CC(C)C)[NH]CCC[NH]1)N(C)CCNc1c2ccccc2[nH+]c2ccccc12.O=[N+]([O-])O.O=[N+]([O-])O,"cell proliferation, MTS",72 h,< 10 nM and 5.3 nM
